Assay results collected from several papers.
Numbered parts are unrelated; each lists some results of a single study. Positions count from the first letter of the parent shown.

Sample 1
Target: ABI1, truncated, D143A, DHFR fusion (Arabidopsis thaliana)
Method: DHFR PCA, deep sequencing
Matrix: yeast
Setting: methotrexate growth selection, single substitutions
Added: (+)-ABA 2500 µM
Baseline: wild-type fitted maximum
Reading: higher = stronger binding
Starting sequence: PYL1, truncated, DHFR fusion (Arabidopsis thaliana); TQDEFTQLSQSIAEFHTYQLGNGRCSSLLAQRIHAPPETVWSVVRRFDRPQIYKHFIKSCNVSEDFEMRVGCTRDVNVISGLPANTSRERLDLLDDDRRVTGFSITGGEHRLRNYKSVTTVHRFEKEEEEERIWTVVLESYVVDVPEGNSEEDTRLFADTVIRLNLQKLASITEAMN
`V76D`: “relative binding score” 3.76%.
`E151I`: “relative binding score” 96.8%.
For `I52C`, “relative binding score” read 95.9%.
`R113A`: “relative binding score” 111%.
For `R132E`, “relative binding score” read 110%.
`G107S`: “relative binding score” 102%.
For `A175T`, “relative binding score” read 97.3%.
`I52D` — result for “relative binding score”: 104%.
For `P37I`, “relative binding score” read 101%.
`E64K`: “relative binding score” 97.6%.
For `N114F`, “relative binding score” read 72.2%.
For `E139C`, “relative binding score” read 98.4%.
`Y141G` — result for “relative binding score”: 0.895%.
`P50E`: “relative binding score” 1.66%.
`R32I`: “relative binding score” 85.4%.
`L8M` — result for “relative binding score”: 101%.
`Y18Q`: “relative binding score” 91.4%.

Sample 2
Target: Ras GTPase-activating protein-binding protein 1, full length (G3BP1, Homo sapiens, UniProt Q13283)
Chain of UniProt Q13283 (whole entry, looked up): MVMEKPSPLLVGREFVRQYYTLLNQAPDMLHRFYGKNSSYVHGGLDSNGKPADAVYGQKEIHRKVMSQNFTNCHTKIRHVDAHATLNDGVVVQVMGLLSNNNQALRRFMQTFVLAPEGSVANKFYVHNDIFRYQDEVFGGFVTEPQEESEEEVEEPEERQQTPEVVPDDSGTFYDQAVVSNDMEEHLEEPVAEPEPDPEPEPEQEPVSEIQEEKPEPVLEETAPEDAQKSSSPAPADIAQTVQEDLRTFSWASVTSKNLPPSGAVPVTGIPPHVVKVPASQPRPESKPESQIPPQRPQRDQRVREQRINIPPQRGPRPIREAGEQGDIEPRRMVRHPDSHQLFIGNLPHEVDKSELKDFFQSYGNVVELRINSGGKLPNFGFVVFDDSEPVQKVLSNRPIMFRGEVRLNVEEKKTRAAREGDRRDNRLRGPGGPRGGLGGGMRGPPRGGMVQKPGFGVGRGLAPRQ
Method: RNA Bind-n-Seq
Molecule type: RNA
Matrix: in vitro
Tested at: 200 nM
Setting: whole 134-nt RNA, ends assumed
Added: 150 mM KCl
Baseline: input library
Reading: higher = stronger binding
For `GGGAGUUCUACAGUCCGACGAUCGUCCUGUGCUACACAUCGUAUGUACCGAAUCGGAAAAAAGGGAAAAAAGGGAAAAAAGGAAAGUAUUAUGUUACGCCGUUCGGAUCUGCAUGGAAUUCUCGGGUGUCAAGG`, the log2 enrichment was -0.791.
With `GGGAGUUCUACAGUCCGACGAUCUCCUGUGCUACACAUCGUAUGUACCGAAUCGGGGUUUUUGGGGUGGGGAAAAAAAGGGGAAAGUAUUAUGUUACGCCGUUCGGAUCUGCAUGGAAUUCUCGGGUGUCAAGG` the log2 enrichment was 0.656.
`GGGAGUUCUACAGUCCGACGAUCCUCAAGUCCUGUGCUACACAUCGUAUGUACCGAAUCGGUUUGGUUUGGUUUGGGAAAGUAUUAUGUUACGCCGUUCGGAUCUGCACUUCCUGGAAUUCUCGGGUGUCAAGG` has a log2 enrichment of -0.597.
With `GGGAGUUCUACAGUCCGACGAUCUCAAGUCCUGUGCUACACAUCGUAUGUACCGAAUCGGAGGAAAGGUUUUUUUGGAAAGUAUUAUGUUACGCCGUUCGGAUCUGCACUUCCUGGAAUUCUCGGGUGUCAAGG` the log2 enrichment was -0.946.
`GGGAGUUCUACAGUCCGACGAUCUGGCUAGUCAGCAGCGGAUGUCCCCUCCAGGUUAAGAAAGCCGAACCAGAGCCGAUGCGAGAGGAGGAGAAAAUGAUUCCUCCUACGAAAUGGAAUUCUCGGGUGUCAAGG` gave a log2 enrichment of 0.0591.
`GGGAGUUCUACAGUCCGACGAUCACCAUGCAGGUGGGCAUCUUUGGGAAGUGGGGCAAGGGGGGGAUAGGGAGGGGGGUAACACUUUGGGAACAAAUGGUCCCAGGUCGUUUCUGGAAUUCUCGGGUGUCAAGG` gave a log2 enrichment of 0.959.
For `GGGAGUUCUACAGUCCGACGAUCUCCUCAAGUCCUGUGCUACACAUCGUAUGUACCGAAUCGGGAGGGGAGGAGGAAAGUAUUAUGUUACGCCGUUCGGAUCUGCACUUCCAGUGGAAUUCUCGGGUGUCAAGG`, the log2 enrichment was 0.173.
With `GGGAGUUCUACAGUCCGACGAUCAAGUCCUGUGCUACACAUCGUAUGUACCGAAUCGGGGAAAGGGGAAAGGGGAGGGGAAAGUAUUAUGUUACGCCGUUCGGAUCUGCACUUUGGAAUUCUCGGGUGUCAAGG` the log2 enrichment was 0.65.
With `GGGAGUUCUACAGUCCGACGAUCAGUCCUGUGCUACACAUCGUAUGUACCGAAUCGGGGUUUUGGGUUUUGGGUUUUGGGGAAAGUAUUAUGUUACGCCGUUCGGAUCUGCACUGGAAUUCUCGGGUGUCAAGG` the log2 enrichment was 0.116.
With `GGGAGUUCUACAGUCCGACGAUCGCAGGAAGUAAAAACAAAUGGAAAUGCUUCGGAUAGUGGCAGAGGUGGGGGUUGCUAAGGAAAGGGUGGGAUGGGAGUGGGUAAAGAGUUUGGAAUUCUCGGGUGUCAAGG` the log2 enrichment was 1.05.
The log2 enrichment of `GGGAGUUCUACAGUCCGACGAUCCUGUGCUACACAUCGUAUGUACCGAAUCGGGAAAAAAAGGGAAAAAAAGGGUUUUUUUGGGAAAGUAUUAUGUUACGCCGUUCGGAUCUGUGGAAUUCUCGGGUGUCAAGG` is reported as -1.28.
The log2 enrichment of `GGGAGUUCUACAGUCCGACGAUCCCUCAAGUCCUGUGCUACACAUCGUAUGUACCGAAUCGGGCCGGCCGGCCGGAAAGUAUUAUGUUACGCCGUUCGGAUCUGCACUUCCAGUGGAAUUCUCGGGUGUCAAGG` is reported as 0.256.
With `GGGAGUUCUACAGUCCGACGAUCGUCCUGUGCUACACAUCGUAUGUACCGAAUCGGGAAAAAAAGGGUUUGGGAAAAAGGGAAAGUAUUAUGUUACGCCGUUCGGAUCUGCACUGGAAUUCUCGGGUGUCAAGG` the log2 enrichment was -0.639.
For `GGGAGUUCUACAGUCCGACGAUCCUGUGCUACACAUCGUAUGUACCGAAUCGGGAAAAAAAGGGAAAAAAAGGGAAAAAAAGGGAAAGUAUUAUGUUACGCCGUUCGGAUCUGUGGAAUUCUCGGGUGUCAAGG`, the log2 enrichment was -0.893.

Sample 3
Target: RING finger protein unkempt homolog, zinc fingers 1-6, SBP tag (UNK, Homo sapiens, UniProt Q9C0B0, residues 30-357)
Chain of UniProt Q9C0B0 (30-357, looked up): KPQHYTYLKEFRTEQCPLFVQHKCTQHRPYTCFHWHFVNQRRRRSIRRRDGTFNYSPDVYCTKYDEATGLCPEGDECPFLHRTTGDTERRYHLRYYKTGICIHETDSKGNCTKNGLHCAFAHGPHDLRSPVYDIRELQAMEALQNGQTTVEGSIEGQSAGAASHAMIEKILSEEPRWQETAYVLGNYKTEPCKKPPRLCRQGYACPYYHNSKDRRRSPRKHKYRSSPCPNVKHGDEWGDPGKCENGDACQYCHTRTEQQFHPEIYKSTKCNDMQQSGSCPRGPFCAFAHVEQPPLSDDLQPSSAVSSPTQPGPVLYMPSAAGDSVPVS
Method: RNA Bind-n-Seq
Molecule type: RNA
Matrix: in vitro
Tested at: 100 nM
Setting: RNA with constant flanks, vertebrate orthologous sites, ends assumed
Baseline: input RNA pool
Reading: higher = stronger binding
For `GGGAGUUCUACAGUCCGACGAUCUACCUUGCUGUAUGGUAUGAUAAACAUUCUUACAUAUUUAUCAGAUGUUGAUAAACUGUUAUCCCUUAACCACUUUUUAUAUGUUUCCUAUUUUUUGAAAUUCCAGUGUAUCUGCCAUAACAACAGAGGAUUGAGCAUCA`, the bound/input enrichment was 0.869 ratio.
`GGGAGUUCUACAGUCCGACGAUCGGCUUUUCUGGCAGCCCAGAUGAACCCUUCAUGGGAGCGGUAAAGAAAUUUGUGAAGCGGCAGCGCACACAGCUGUACAGCUGCACCGCCUCUCGCUGCUGUGCUCAGGUGCUUACUACACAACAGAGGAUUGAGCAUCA` has a bound/input enrichment of 0.357 ratio.
For `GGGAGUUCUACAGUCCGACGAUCUGAGGGGGAGAUUUCUGUGCUUUCUCAUAUUUAAUUUCCUCUUAUUAAGAUAUUCCAACCUAGAGUUUUUGAUGGAACUGAUAUAUUGACAGUUCUCACCUAAGUCCUUUUAUAAAGAAUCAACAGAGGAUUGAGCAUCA`, the bound/input enrichment was 1.33 ratio.
`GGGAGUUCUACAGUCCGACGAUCGUGGGGAUGAGGGUGGGAUGGGAAAGGGAUGUAUGGAUGUUAUUGGCAUUUUUAAGUGUUUAGAGUUUUUUGGGGUUUGGGGUGGUUUUUUCUCCUUGUUUUCCUUUUUUUCCUUUUAAUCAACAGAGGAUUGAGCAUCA` has a bound/input enrichment of 1.8 ratio.
The bound/input enrichment of `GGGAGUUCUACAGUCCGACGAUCCUCCUCUUAAUCCCAUUUCAUCUGUUUCAUAGUGCUGAAAUUCCAUCUUCAGCCUUAUUUUUAGUGAACUUAUUCUAAUUCUAGAGAAACUUCCAGCGUGGAUACUGUGAGCUAUAUGGACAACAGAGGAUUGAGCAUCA` is reported as 1.72 ratio.
With `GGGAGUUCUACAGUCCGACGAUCAGAAAAUUUUAACCAAGAACCUGAAGGUAGAAAUACAGGACCAUGGUUAUCUUCCUCACUUAGAAAUAGAUGCACACCUUUGUUCUCUAGAAGGAGACGAGAGGGACGAGAUGAAUCUUCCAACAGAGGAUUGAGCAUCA` the bound/input enrichment was 0.802 ratio.
The bound/input enrichment of `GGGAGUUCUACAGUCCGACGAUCCAACAGGAGGGUGCUGGACAAGGUGAGGAGCAAGUUAAGGCGGCAGAGGUUGGUAAAACUGCUGCCAUUGCACAAUGGCUAAGCUGCAGUCACUUCUCUGUGUAAAACCAGCUGUGUUUACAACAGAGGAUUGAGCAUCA` is reported as 0.42 ratio.
With `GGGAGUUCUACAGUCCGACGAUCUGACCGUACAUACAAAAUGUGCUUUGAGUCAUAGGUGUGAAUGAAACCAUAGCUUGAAUAGAAUUCACUUUUAGAACUAUACAACAUAUAAGAACCCAUAAGCCAGAGGUCUGAGUUCUUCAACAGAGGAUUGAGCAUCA` the bound/input enrichment was 0.703 ratio.
With `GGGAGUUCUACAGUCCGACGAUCUCUAGGUAGGAGCAACCAUUAACUUAUUCGAGUAAAGAAAUGAAAAGCUGAAAAUCAUAUUAGUAUUAAGUUUAGUUGGAGAAUUUAAAUAAGACUUUUAGGUAAUUCUAAAAUUGAGUCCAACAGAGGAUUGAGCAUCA` the bound/input enrichment was 0.833 ratio.
`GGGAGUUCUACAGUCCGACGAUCCACAUCUGGUGAUAUCUGGCCUGGCCUUUCAGCUUAUGAUAAUAGUCCGAGAUCACCUCAUAGUCCUUCACCUAUUGCUACACCACCCAGUCAGAGUUCCUCUUGCUCAGAUGCCCCCAUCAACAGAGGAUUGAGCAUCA` gave a bound/input enrichment of 1.08 ratio.
`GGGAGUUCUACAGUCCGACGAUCGUUAGGUCAUGACCCUUAUAGGCUAGGUCAUGAUGCCUAUAGAUUAGGGCAAGACCCUUAUAGAUUAGGCCAUGAUCCCUACAGACUUACUCCUGAUCCCUAUAGGAUGUCACCUAGACCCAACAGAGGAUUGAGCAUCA` gave a bound/input enrichment of 0.394 ratio.

Sample 4
Molecule: PhoQ, residues 284 288 289 292 302 303 AGHLVA
Method: Sort-seq
Item: YFP reporter
Matrix: E. coli
Setting: PhoQ-PhoP variant library
Added: 10 µM Mg2+
Baseline: high Mg2+ state
Reading: higher = stronger signaling
For PhoP, residues 12 14 15 18 19 LHTVL (Escherichia coli, UniProt P23836): fold induction read 2.98.
It gave 20.7 for fold induction (PhoP, residues 12 14 15 18 19 TQAML (Escherichia coli, UniProt P23836)).
The fold induction was 9.05 (PhoP, residues 12 14 15 18 19 NQCAL (Escherichia coli, UniProt P23836)).

For quick reference, copied from above (sample 1):
`R113A`: “relative binding score” 111%.
For `R132E`, “relative binding score” read 110%.
`G107S`: “relative binding score” 102%.
For `A175T`, “relative binding score” read 97.3%.
